Experimental data collected from several papers.
Every numbered part comes from another study and shows a few of its results, in no order.
Sequence of UniProt P42680 (whole entry, looked up): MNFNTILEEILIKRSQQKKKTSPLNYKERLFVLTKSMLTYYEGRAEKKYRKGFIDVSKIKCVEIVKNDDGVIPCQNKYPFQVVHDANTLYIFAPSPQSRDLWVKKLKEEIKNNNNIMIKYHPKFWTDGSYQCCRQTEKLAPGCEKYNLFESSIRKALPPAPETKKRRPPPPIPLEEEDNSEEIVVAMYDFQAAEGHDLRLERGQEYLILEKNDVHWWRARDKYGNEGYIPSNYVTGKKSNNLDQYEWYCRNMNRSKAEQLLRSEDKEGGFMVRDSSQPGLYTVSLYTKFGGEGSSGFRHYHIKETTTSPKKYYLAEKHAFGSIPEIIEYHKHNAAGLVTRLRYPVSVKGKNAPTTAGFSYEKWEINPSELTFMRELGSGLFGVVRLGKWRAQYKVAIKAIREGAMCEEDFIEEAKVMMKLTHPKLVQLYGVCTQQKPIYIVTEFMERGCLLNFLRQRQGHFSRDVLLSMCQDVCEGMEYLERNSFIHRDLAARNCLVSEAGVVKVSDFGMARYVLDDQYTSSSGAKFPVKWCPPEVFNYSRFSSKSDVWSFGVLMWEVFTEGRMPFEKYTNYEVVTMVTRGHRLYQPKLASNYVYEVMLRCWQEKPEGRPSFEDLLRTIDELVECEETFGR
Sequence of UniProt P11802 (whole entry, looked up): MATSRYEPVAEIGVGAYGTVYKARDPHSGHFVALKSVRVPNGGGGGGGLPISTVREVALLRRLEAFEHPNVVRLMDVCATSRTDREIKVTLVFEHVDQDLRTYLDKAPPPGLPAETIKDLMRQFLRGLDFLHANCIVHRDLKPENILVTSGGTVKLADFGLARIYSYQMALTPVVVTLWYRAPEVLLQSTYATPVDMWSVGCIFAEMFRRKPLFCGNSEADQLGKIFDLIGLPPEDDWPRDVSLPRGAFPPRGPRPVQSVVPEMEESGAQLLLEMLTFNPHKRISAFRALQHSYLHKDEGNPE
Sequence of UniProt Q9UM73 (whole entry, looked up): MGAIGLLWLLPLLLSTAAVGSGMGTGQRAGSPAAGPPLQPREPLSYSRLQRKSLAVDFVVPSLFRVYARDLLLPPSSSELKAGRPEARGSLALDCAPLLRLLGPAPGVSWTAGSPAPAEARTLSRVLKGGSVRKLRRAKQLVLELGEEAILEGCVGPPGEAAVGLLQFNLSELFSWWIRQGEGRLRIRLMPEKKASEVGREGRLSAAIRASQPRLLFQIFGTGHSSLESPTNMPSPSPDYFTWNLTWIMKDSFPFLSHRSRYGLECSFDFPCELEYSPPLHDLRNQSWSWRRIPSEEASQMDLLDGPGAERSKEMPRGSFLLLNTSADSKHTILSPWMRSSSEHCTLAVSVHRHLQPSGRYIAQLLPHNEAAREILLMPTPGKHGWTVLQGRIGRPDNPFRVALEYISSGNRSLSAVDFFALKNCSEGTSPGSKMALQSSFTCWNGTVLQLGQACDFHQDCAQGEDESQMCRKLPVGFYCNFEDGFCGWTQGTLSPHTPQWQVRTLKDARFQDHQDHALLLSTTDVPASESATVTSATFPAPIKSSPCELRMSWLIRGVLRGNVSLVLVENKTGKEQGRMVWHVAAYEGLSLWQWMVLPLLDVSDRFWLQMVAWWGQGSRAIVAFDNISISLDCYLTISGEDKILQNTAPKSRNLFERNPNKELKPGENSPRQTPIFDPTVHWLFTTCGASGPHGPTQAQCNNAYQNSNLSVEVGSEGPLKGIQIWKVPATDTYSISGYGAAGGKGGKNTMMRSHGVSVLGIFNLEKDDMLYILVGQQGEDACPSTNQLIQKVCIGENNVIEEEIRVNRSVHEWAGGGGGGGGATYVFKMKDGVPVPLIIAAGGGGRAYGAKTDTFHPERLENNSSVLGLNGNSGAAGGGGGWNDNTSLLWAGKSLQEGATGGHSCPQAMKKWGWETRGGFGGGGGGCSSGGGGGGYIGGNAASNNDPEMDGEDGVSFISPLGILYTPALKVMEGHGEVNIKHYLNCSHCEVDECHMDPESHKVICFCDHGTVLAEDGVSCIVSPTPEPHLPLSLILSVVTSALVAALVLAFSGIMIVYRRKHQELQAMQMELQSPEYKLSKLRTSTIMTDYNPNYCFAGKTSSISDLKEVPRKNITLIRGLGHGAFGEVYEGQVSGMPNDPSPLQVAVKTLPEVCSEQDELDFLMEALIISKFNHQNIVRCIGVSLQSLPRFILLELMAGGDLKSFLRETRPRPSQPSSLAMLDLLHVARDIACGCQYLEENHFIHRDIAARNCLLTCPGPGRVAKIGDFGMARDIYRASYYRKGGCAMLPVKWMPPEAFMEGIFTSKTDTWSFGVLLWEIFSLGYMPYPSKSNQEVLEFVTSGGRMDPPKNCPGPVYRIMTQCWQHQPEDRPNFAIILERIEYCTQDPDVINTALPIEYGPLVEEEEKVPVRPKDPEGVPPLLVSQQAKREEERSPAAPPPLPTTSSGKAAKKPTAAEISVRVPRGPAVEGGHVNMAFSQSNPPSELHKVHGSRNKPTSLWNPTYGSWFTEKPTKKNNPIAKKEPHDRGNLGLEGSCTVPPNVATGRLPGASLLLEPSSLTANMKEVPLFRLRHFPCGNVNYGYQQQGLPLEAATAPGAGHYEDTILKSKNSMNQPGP
Sequence of UniProt Q6P2M8 (whole entry, looked up): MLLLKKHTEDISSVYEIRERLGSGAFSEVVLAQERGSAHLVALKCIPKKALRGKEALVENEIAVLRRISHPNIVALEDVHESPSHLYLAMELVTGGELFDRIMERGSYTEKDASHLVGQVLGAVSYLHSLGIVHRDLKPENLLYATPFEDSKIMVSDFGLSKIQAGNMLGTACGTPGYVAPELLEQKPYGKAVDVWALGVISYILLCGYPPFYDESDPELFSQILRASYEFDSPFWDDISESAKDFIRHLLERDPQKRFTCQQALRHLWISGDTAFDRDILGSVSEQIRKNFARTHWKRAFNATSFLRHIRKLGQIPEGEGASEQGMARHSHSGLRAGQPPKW
Sequence of UniProt P15056 (whole entry, looked up): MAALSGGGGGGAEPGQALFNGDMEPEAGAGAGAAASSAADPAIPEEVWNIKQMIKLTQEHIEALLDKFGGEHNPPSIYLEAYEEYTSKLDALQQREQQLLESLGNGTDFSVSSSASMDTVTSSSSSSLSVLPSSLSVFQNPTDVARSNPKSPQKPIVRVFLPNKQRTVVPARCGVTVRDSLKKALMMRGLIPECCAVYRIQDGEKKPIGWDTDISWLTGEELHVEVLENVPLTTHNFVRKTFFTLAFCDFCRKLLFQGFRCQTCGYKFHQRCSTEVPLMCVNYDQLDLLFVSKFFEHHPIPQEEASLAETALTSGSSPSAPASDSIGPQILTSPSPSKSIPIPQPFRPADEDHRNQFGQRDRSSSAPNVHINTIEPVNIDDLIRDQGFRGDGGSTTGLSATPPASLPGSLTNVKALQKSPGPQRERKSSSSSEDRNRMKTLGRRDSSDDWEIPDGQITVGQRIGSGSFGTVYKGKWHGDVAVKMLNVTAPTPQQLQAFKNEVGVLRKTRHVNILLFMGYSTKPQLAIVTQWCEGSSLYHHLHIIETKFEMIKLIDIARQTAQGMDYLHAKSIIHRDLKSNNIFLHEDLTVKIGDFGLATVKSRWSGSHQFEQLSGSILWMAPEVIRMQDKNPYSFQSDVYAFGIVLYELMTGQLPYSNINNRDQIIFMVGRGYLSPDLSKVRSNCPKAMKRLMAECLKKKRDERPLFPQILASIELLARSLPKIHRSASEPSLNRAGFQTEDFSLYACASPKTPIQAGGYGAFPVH
Sequence of UniProt Q00535 (whole entry, looked up): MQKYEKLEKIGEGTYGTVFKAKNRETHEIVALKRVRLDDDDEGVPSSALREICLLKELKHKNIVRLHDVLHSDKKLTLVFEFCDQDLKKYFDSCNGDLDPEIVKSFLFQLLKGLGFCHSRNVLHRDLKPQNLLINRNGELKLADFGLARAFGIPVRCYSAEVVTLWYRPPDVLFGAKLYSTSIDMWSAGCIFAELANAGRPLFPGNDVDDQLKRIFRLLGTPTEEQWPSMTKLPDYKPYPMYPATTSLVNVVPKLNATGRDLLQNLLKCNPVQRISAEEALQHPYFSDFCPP

Series 1 — organism: Sarcocystis neurona; observed: parasite growth; tested at: 10 µM; setting: second screen; reference: untreated
Structure (SMILES) | log2 fold change
CNCCC(Oc1ccc(C(F)(F)F)cc1)c1ccccc1.Cl (centres unmarked) | 0.39
CC(=O)CCCCn1cnc2c1c(=O)n(C)c(=O)n2C | 0.17
CC1(C)C[C@@H]1C(=O)N/C(=C\CCCCSC[C@H](N)C(=O)O)C(=O)[O-].[Na+] | 0.56
C[C@]12CCC(=O)C=C1CC[C@@H]1[C@@H]2C(=O)C[C@@]2(C)[C@H]1CC[C@]2(O)C(=O)CO | -0.0535

Series 2 — SMILES: C=CCc1ccc(O)c(-c2ccc(O)c(CC=C)c2)c1; observed: chloride current; method: whole-cell voltage clamp
ANO1 del476-501/M544A: Anoctamin-1 (ANO1, Homo sapiens, UniProt Q5XXA6, del476-501/M544A)
Sequence of UniProt Q5XXA6 (whole entry, unmodified, looked up): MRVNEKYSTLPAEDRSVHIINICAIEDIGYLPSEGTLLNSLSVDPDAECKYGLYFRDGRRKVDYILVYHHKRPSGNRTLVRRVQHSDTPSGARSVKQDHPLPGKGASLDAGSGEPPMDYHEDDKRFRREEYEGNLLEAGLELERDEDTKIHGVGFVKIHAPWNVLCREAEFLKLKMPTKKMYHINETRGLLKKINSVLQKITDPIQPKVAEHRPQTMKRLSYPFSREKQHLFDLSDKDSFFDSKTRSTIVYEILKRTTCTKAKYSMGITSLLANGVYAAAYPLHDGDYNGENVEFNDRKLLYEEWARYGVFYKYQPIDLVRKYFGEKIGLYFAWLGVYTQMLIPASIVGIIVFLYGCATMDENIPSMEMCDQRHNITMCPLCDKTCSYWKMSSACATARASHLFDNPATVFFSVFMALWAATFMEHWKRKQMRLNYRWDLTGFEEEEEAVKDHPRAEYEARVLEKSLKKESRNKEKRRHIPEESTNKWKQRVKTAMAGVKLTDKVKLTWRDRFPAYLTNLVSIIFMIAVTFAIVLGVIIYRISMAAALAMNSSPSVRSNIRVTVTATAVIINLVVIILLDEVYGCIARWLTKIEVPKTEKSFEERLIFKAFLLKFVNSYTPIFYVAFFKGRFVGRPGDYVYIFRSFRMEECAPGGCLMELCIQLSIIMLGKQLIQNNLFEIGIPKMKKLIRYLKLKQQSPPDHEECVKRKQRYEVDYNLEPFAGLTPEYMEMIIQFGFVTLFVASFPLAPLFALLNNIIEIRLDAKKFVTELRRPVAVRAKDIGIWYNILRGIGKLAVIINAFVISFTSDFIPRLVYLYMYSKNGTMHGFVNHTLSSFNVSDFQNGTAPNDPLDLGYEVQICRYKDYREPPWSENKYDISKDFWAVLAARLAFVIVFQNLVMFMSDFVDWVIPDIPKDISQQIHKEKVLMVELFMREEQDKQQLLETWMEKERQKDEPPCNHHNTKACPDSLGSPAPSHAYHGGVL
target | mode | tested at | setting | IC50 [µM]
Anoctamin-1 (ANO1, Homo sapiens, UniProt Q5XXA6, del476-501/F628Y) | inhibitor | 20 mV holding voltage |  | 27.5
ANO1 del476-501/M544A |  |  | membrane voltage -40 mV | 3.64
Anoctamin-1 (ANO1, Homo sapiens, UniProt Q5XXA6, del476-501/R631D) | inhibitor |  | R605D mutant at -40 mV | 20
ANO1 del476-501/M544A |  |  | membrane voltage 20 mV | 3.44
Anoctamin-1 (ANO1, Homo sapiens, UniProt Q5XXA6, del476-501/F803A) | inhibitor |  | mutant F777A | 14.6

Series 3 — method: competition with immobilised ligand; tested at: 1 µM
Compound: C[C@H](NC(=O)c1cnc2n1[C@](C)(Cc1ccc(C#N)cc1)C(=O)N2c1cc(Cl)c(F)c(Cl)c1)C(=O)NC1(c2ccccn2)CC1
target | observed | remaining binding [%]
Tyrosine-protein kinase SYK (SYK, Homo sapiens, UniProt P43405) | cell-free assay | 100
Phosphatidylinositol 4-phosphate 5-kinase type-1 alpha (PIP5K1A, Homo sapiens, UniProt Q99755) | cell-free assay | 100
Serine/threonine-protein kinase B-raf (BRAF, Homo sapiens, UniProt P15056) | cell-free assay | 100
ALK tyrosine kinase receptor (ALK, Homo sapiens, UniProt Q9UM73) | cell-free assay | 100
Serine/threonine-protein kinase PAK 5 (PAK5, Homo sapiens, UniProt Q9P286) | cell-free assay | 100
Tyrosine-protein kinase Mer (MERTK, Homo sapiens, UniProt Q12866) | cell-free assay | 99
Tyrosine-protein kinase Tec (TEC, Homo sapiens, UniProt P42680) | binding | 75
Cyclin-dependent kinase 5 (CDK5, Homo sapiens, UniProt Q00535) | cell-free assay | 100
cAMP-dependent protein kinase catalytic subunit beta (PRKACB, Homo sapiens, UniProt P22694) | cell-free assay | 75
Cyclin-dependent kinase 4 (CDK4, Homo sapiens, UniProt P11802) | cell-free assay | 100
Serine/threonine-protein kinase LATS1 (LATS1, Homo sapiens, UniProt O95835) | cell-free assay | 100
Bone morphogenetic protein receptor type-1A (BMPR1A, Homo sapiens, UniProt P36894) | binding | 98
Calcium/calmodulin-dependent protein kinase type 1B (PNCK, Homo sapiens, UniProt Q6P2M8) | cell-free assay | 83

Series 4 — method: immunoblot; reference: DMSO
SMILES: C[C@@H]1OCC2(CCN(c3cnc(Sc4ccnc(N)c4Cl)c(N)n3)CC2)[C@@H]1N
cell line | tested at | phospho-ERK level
Ba/F3 KRAS G12D | 0.1 µM | 79%
Ba/F3 NRAS G12D | 0.1 µM | 98%
Ba/F3 KRAS G12D | 1 µM | 60%
Ba/F3 NRAS G12D | 1 µM | 65%

Repeated from above (series 3):
target | observed | remaining binding [%]
Serine/threonine-protein kinase LATS1 (LATS1, Homo sapiens, UniProt O95835) | cell-free assay | 100
Bone morphogenetic protein receptor type-1A (BMPR1A, Homo sapiens, UniProt P36894) | binding | 98
Calcium/calmodulin-dependent protein kinase type 1B (PNCK, Homo sapiens, UniProt Q6P2M8) | cell-free assay | 83
